Results of several laboratories.
Protocols differ between the studies behind these lines. Values joined by “and” are separate records of one study, mostly repeats; a detail may differ. Numbers after ± are the reported error.
Cell line: HCT-116

O=C(Cn1c(=O)c(Cc2ccccc2)nc2ccccc21)OCCNCCO  mRNA level (qRT-PCR, refers to: BCL-2; concentration not given, 72 h; relative to: untreated): 0.213 ± 0.012 fold
N=C(N)NCCC[C@@H](N)C(=O)N[C@@H](CCCNC(=N)N)C(=O)N[C@@H](Cc1ccc2ccccc2c1)C(=O)N[C@@H](CCCNC(=N)N)C(=O)N[C@@H]1CSCc2ccccc2CSC[C@@H](C(=O)N[C@H](CCCNC(=N)N)C(=O)N[C@@H](CC2CCCCC2)C(=O)N[C@@H](CCCNC(=N)N)C(=O)N2Cc3ccccc3C2C(N)=O)NC(=O)[C@H](Cc2cccc3ccccc23)NC(=O)[C@H](Cc2ccc(O)cc2)NC1=O (stereo partly drawn)  EC50: 10.7 ± 0.7 µM
Cc1ccc(CNC(=O)[C@H](CCc2ccccc2)NC(=O)[C@H](CC(=O)NCC(C)(C)C)NC(=O)CCc2cccc(F)c2)cc1  inhibition (bulk protein turnover; 3 µM): ~20%
Cc1nc2ccccc2c(=O)n1N  viability (cell growth or viability, LDH; 200 µg/mL, 24 h): 46.5%
Cc1ccc(C(C)C)cc1.[Cl][Au].[Cl][Ru][Cl].c1ccc(P(CP(c2ccccc2)c2ccccc2)c2ccccc2)cc1  IC75 (cell growth, trypan blue exclusion; 48 h, DMSO 1%): 9.9 ± 0.2 µM
O=C(COc1ccccc1/C=N/Nc1nc(-c2ccc(Br)cc2)cs1)N1CCN(C(=O)COc2ccccc2/C=N/Nc2nc(-c3ccc(Br)cc3)cs2)CC1  inhibition (cell growth or viability, SRB; 100 µM, 48 h): 61.8%
CC1(CO)C(O)CCC2(C)C(C=CC3=CCOC3=O)C(CO)=CCC12 (stereo not drawn)  inhibition (cell growth or viability, MTT; 20 µM, 48 h): 3.79%
NC1=N[N+](=Cc2c3ccccc3cc3ccccc23)[Ga-3]23([S]1)([S]C(N)=N[N+]2=Cc1c2ccccc2cc2ccccc12)[S]C(N)=N[N+]3=Cc1c2ccccc2cc2ccccc12  selectivity ratio (72 h; relative to: IC50 CCD-18Co over HCT-116): 4.22 and 4.2
COc1ccc(C2=Nn3c(NN=C4C(=O)N(Cc5ccccc5)c5ccc(Cl)cc54)nnc3SC2)cc1  inhibition (cell growth or viability, SRB; 10 µM): 46%
COc1cc(CNC(=O)C[C@H](C)CCC=C(C)C)ccc1OCc1cn(-c2ccccc2F)nn1  growth percent (SRB; 10 µM, 48 h): 60.1%
O=C(Cn1c(=O)c(Cc2ccccc2)nc2ccccc21)NN1C(=O)c2ccccc2C1=O  mRNA level (qRT-PCR, refers to: p21; concentration not given, 72 h; relative to: untreated): 2.21 ± 0.082 fold
[O-][n+]1nc(NCCNc2nc3ccccc3[n+]([O-])n2)nc2ccccc21  ROS level (CM-H2DCFDA flow cytometry; concentration not given; relative to: control medium): 1.3 fold
O=c1c(Cc2ccccc2)nc2ccccc2n1Cc1cn(-c2ccc(S(=O)(=O)Nc3ncccn3)cc2)nn1  selectivity index (MTT; relative to: HCT-116 over normal colonocytes): 2.12
CC(=O)OC[C@H]1O[C@@H](Sc2sc(C(=O)c3ccc(Br)cc3)c(N)c2-c2nc3ccccc3s2)[C@H](OC(C)=O)[C@@H](OC(C)=O)[C@H]1OC(C)=O  growth (SRB; 10 µM, 48 h; relative to: untreated): 98.8%
Cc1ncc(COP(=O)([O-])O)c(/C=N\NC(=O)Cn2c(=O)c(Cc3ccccc3)nc3ccccc32)c1O.[Na+]  selectivity index (MTT; relative to: HCT-116 over normal colonocytes): 1.06
CSc1nc(Nc2ccc(/C(C)=N/NC(=O)c3ccc([N+](=O)[O-])cc3[N+](=O)[O-])cc2)c(C#N)c(-c2ccccc2)n1  total apoptotic cells (annexin V-FITC/PI flow cytometry; concentration not given): 21.4%
COc1cc(CNC(=O)C[C@H](C)CCC=C(C)C)ccc1OCc1cn(-c2ccccc2)nn1  growth percent (SRB; 10 µM, 48 h): 96.7%
CC/C=C\C/C=C\C/C=C\C/C=C\C/C=C\C/C=C\CCC(=O)Nc1ccn(C2OC(CO)C(O)C2(F)F)c(=O)n1 (stereo not drawn)  GI50 (cell growth or viability, SRB): 0.0311 µM
C=CCSc1nc(N)c2c(F)c(C#N)c(F)c(Cl)c2n1  cells in G1 phase (DAPI staining imaging; 1.02 µM, 24 h): 47.7%
COC(=O)CCNC(=O)CNC(=O)CCn1nc(Cc2ccccc2)c2ccccc2c1=O  G2 phase cells (concentration not given): 20.4%
CO[C@H]1N(OC)c2ccccc2[C@@]12CN=C(Nc1cc(C(F)(F)F)cc(C(F)(F)F)c1)S2 (relative stereo)  early apoptotic cells (annexin V/PI flow cytometry; 40 µM, 24 h): 23.4 ± 3.25%
CCCc1c(O)c(O)cc(C(=O)O)c1COC1OC(CO)C(O)C(O)C1O (stereo not drawn)  mRNA level (Wnt/β-catenin signalling, RT-qPCR, refers to: B9L; 25 µM; relative to: HPRT): no effect
COc1cc(CNC(=O)C[C@H](C)CCC=C(C)C)ccc1OCc1cn(-c2ccccc2Cl)nn1  growth percent (SRB; 10 µM, 48 h): 49.7%
CC(C)C1=C(O)C(=O)C2=C(C1=O)[C@H](O)[C@@H](O)[C@H]1C(C)(C)CCC[C@]21C  GI50 (cell growth or viability, SRB; 48 h): ≥ 50 µM
N#Cc1c(F)c(F)c2nc(SCc3ccc4ccccc4c3)nc(N)c2c1F  cells in S phase (DAPI staining imaging; 2.56 µM, 24 h): 11.1%
NS(=O)(=O)c1ccc(-n2cc(Cn3c(=O)c(Cc4ccccc4)nc4ccccc43)nn2)cc1  mRNA level (qRT-PCR, refers to: p21; concentration not given, 72 h; relative to: untreated): 2.7 ± 0.188 fold
COc1ccc(NC(=O)N/N=C2\CC3(CCN(C)CC3)Oc3ccccc32)cc1  apoptotic cells (annexin V-FITC/PI; concentration not given, 24 h, Early apoptosis): 31%
Cc1ccc(C(C)C)cc1.[Cl][Ru]([Cl])[P](CP(c1ccccc1)c1ccccc1)(c1ccccc1)c1ccccc1  IC75 (cell growth, trypan blue exclusion; 48 h, DMSO 1%): 229 ± 2.3 µM
CCC(=C(c1ccc(Cl)cc1)c1ccc(OCCCN(C)C)cc1)c1ccc(OC)cc1  GI50 (cell growth or viability, SRB): 0.86 µM
CC(=O)OCC1=CCC2[C@]3(C)COC(c4ccccc4)O[C@@H]3CC[C@@]2(C)[C@@H]1/C=C/C1=CCOC1=O (stereo partly drawn)  inhibition (cell growth or viability, MTT; 20 µM, 48 h): 39.9%

Some of these lines once more:
N=C(N)NCCC[C@@H](N)C(=O)N[C@@H](CCCNC(=N)N)C(=O)N[C@@H](Cc1ccc2ccccc2c1)C(=O)N[C@@H](CCCNC(=N)N)C(=O)N[C@@H]1CSCc2ccccc2CSC[C@@H](C(=O)N[C@H](CCCNC(=N)N)C(=O)N[C@@H](CC2CCCCC2)C(=O)N[C@@H](CCCNC(=N)N)C(=O)N2Cc3ccccc3C2C(N)=O)NC(=O)[C@H](Cc2cccc3ccccc23)NC(=O)[C@H](Cc2ccc(O)cc2)NC1=O (stereo partly drawn)  EC50: 10.7 ± 0.7 µM
COC(=O)CCNC(=O)CNC(=O)CCn1nc(Cc2ccccc2)c2ccccc2c1=O  G2 phase cells (concentration not given): 20.4%
Cc1ccc(C(C)C)cc1.[Cl][Au].[Cl][Ru][Cl].c1ccc(P(CP(c2ccccc2)c2ccccc2)c2ccccc2)cc1  IC75 (cell growth, trypan blue exclusion; 48 h, DMSO 1%): 9.9 ± 0.2 µM
